Published values pooled from the literature.
Compare with care: the assays were run in different laboratories. ± gives the spread as reported.

`CN(C)C(CNC(=O)Nc1cc(C(F)(F)F)ccc1N1CCOCC1)c1ccncc1` (stereo not drawn): “serum total CO2” 19 mmol/L (mouse, serum; intraperitoneal, 120 mg/kg single dose).
For `CC[C@H](C)[C@H](NC(=O)[C@H](CC(=O)O)NC(=O)[C@H](CO)NC(=O)[C@H](CCC(N)=O)NC(=O)[C@H](C)NC(=O)[C@H](CC(=O)O)NC(=O)[C@H](CCC(=O)O)NC(=O)[C@H](Cc1c[nH]cn1)NC(=O)[C@H](Cc1ccc(O)cc1)NC(=O)[C@H](C)NC(=O)[C@H](CC(=O)O)NC(=O)[C@H](CCC(=O)O)NC(=O)[C@H](Cc1c[nH]cn1)NC(=O)[C@H](Cc1ccc(O)cc1)NC(=O)[C@H](C)NC(=O)[C@H](CC(=O)O)NC(=O)[C@H](CCC(=O)O)NC(=O)[C@H](Cc1c[nH]cn1)NC(=O)[C@H](Cc1ccc(O)cc1)NC(=O)[C@H](C)NC(=O)[C@H](CC(=O)O)NC(=O)[C@H](CCC(=O)O)NC(=O)[C@H](Cc1c[nH]cn1)NC(=O)[C@H](Cc1ccc(O)cc1)NC(=O)[C@H](C)NC(=O)[C@H](CC(=O)O)NC(=O)[C@H](CCC(=O)O)NC(=O)[C@H](Cc1c[nH]cn1)NC(=O)[C@@H](N)Cc1ccc(O)cc1)C(=O)N[C@H](C(=O)N[C@@H](C)C(=O)N[C@@H](Cc1c[nH]cn1)C(=O)N[C@@H](CC(C)C)C(=O)N[C@@H](CC(C)C)C(=O)O)C(C)C`, “LY share of white cells” read 91.2 ± 0.8% (mouse SN model, blood; dose not given).
With `CN[C@](C)(C[18F])C(=O)O` the tissue uptake was 2.7 ± 0.5 %ID/g (SCID mouse MDA-MB-468 xenograft, kidney; 120 min post injection).
`CCN(Cc1ccccc1)C(=O)CCc1nc(CN2CCN(C(=O)Cc3ccc(OC)c(OC)c3)CC2)no1` has a concentration of 77 ± 3 ng/g (LC-MS; rat, DRG; intravenous, 1 mg/kg, 2.0 h).
For `CC[C@@H]1C[C@]1(NC(=O)[C@@H]1C[C@@]2(CN1C(=O)[C@@H](NC(=O)[C@@H](NC(=O)[C@@H]1CCCCN1C(C)C)C1CCCCC1)C(C)(C)C)C(C)(C)C21CCC1)C(=O)NS(=O)(=O)N1CCCC1`, “subjects with adverse event” read 0% (refers to: Pain; healthy human; oral, 10 mg, with: ritonavir 100 mg).
`O=C(NCCCCCn1ccc2ccc(F)cc21)Oc1cccc(F)c1` has a parent remaining of 79 ± 9% (porcine liver S9 fraction; 20 µM, 30 min, with: BNPP 1 mM).
`COC(=O)C[C@](O)(CCCC(C)(C)OC(C)=O)C(=O)O[C@@H]1C(OC)=C[C@]23CCCN2CCc2cc4c(cc2[C@H]13)OCO4` gave a tissue concentration of 275 ng/mL (CD1 mouse, liver; oral, 1 mg/kg, 2 h).
`CCCCCCCCCCCCC(=O)O.O=C1CCCC2C3CCCN4CCCC(CN12)C34` (stereo not drawn) — result for “log octanol-water partition coefficient”: 0.99 (shake-flask; simulated body fluid; pH 7.4, 37 °C).
With `CCC(CC)OC1C=C(C(=O)OC(C)OC(=O)C(N)C(C)C)CC(NC(=N)N)C1NC(C)=O` (mixture of isomers) the oral bioavailability was 48% (mouse (fasted); oral, 10 mg/kg; baseline: 1 mg/kg intravenous).
The body weight of `CC(C)[C@@H]1NC(=O)[C@H](Cc2ccccc2)NC(=O)[C@H](Cc2ccc(O)cc2)NC(=O)CCSSC[C@@H](C(=O)N2CCC[C@H]2C(=O)N[C@H](CCCNC(=N)N)C(=O)NCC(N)=O)NC(=O)[C@H](CCC(N)=O)NC1=O` is reported as 225 ± 16.8 g (Wistar rat; intravenous, 1 µg/kg single dose, 72 h).
`O=P1(NCCCl)NCCCO1` (stereo not drawn) has an MRT(0-t) of 6.54 ± 0.61 h (rat, plasma; intravenous, 10 mg/kg, with: ketoconazole 40 mg/kg oral 50 min before).
`CCN(CC)c1ccc2c(-c3ccccc3C(=O)OCCOCC[18F])c3ccc(=[N+](CC)CC)cc-3oc2c1` — result for “heart to blood ratio”: 10 (rat; dose not given, 60 min post injection; baseline: heart over blood).
`CC[C@H](C)[C@@H]1NC(=O)[C@H](CCCCN)NC(=O)[C@H](CCCCN)NC(=O)[C@H](Cc2ccc(O)cc2)NC(=O)[C@H](CC(C)C)NC(=O)[C@@H]2CCCN2C(=O)[C@H](C)NC(=O)CNC(=O)CNC(=O)[C@H](CO)NC(=O)CNC(=O)CNC(=O)[C@H](CO)NC(=O)[C@H](CCC(=O)O)NC(=O)[C@H](CC(C)C)NC(=O)[C@H](CC(C)C)NC(=O)[C@H](CCCCN)NC(=O)[C@H](CCCCN)NC(=O)[C@H](C(C)C)NC(=O)[C@H]([C@@H](C)CC)NC(=O)[C@H](CCCCN)NC(=O)[C@H](CCCCN)NC(=O)[C@H](Cc2ccc(O)cc2)NC(=O)[C@H](CC(C)C)NC(=O)[C@@H]2CCCN2C(=O)CNC(=O)CNC(=O)[C@@H](NC(=O)CN)CSSC[C@@H](C(N)=O)NC(=O)[C@H](CC(C)C)NC(=O)[C@H](CCCCN)NC(=O)[C@H](CCCCN)NC(=O)[C@H](C(C)C)NC1=O` — result for “remaining intact peptide”: 17.4 ± 1% (25% human serum; 50 µM, 24 h; baseline: 0 h control).
`c1ccc(C2(CCNC3CCC4(SCCS4)c4ccccc43)CCOC3(CCCC3)C2)nc1` (stereo not drawn) gave an AUC(0-24 h) of 137 ng·h/mL (rat; intravenous, 0.15 mg/kg).
The clearance of `COc1ccc(F)cc1S(=O)(=O)Nc1cnc2c(c1)C(=O)NCCO2` is reported as 5.06 mL/min/kg (male cynomolgus monkey, plasma; intravenous, 0.3 mg/kg, single dose).
The clearance ratio of `CC[C@H](C)[C@H](NC(=O)CNC(=O)[C@@H](NC(=O)[C@H](Cc1ccc(O)cc1)NC(=O)[C@@H](NC(=O)[C@H](CO)NC(=O)[C@@H](NC(=O)[C@H](C)NC(=O)[C@@H]1CCCN1C(=O)[C@@H](NC(=O)[C@H](Cc1ccccc1)NC(=O)[C@H](CCCCN)NC(=O)[C@H](CCC(=O)O)NC(=O)[C@H](Cc1ccc(O)cc1)NC(=O)[C@H](CC(C)C)NC(=O)[C@H](CC(=O)O)NC(=O)[C@H](CCCNC(=N)N)NC(=O)[C@H](CC(C)C)NC(=O)[C@H](CCCCN)NC(=O)[C@H](CCC(=O)O)NC(=O)[C@H](Cc1ccccc1)NC(=O)[C@@H](NC(=O)[C@H](CCC(=O)O)NC(=O)[C@H](CCCCN)NC(=O)[C@H](CC(C)C)NC(=O)[C@H](Cc1ccc(O)cc1)NC(=O)[C@@H](N)CC(=O)O)C(C)C)[C@@H](C)O)C(C)C)[C@@H](C)O)[C@@H](C)O)C(=O)N[C@@H](Cc1ccccc1)C(=O)N[C@H](C(=O)N[C@@H](CC(=O)O)C(=O)N[C@@H](CCC(N)=O)C(=O)N[C@H](C(=O)N[C@@H](CC(C)C)C(=O)N[C@@H](CO)C(=O)N[C@H](C(=O)N[C@@H](CC(C)C)C(=O)N[C@@H](CCCCN)C(=O)NCC(=O)N[C@@H](CCC(=O)O)C(=O)N[C@@H](CCC(=O)O)C(=O)O)C(C)C)C(C)C)[C@@H](C)O` is reported as about 4 fold (cynomolgus monkey; 80 mg/kg; baseline: 80 mg/kg over 8 mg/kg).
For `CC(C)(O)c1ccccc1CC[C@H](c1cccc(/C=C/c2ccc3ccc(Cl)cc3n2)c1)S(=O)(=O)CC1(CC(=O)O)CC1`, the percent metabolized was 32.4% (human liver cytosol; 1 µM, 30 min, 1 mg/mL protein).
For `[3H]c1sc(C)nc1C=C(C)C1CC2C(CCCC(C)C(O)C(C)C(=O)C(C)(C)C(O)CC(=O)O1)N2CCO` (stereo not drawn), “radioactivity in tissue” read 2.3 ± 0.5 µg-eq/g (whole-body autoradiography; CD2F1 mice, M109 FR− tumour periphery; intravenous, 2.2 nmol/kg, 2 h).
With `CC[C@H](C)[C@H](NC(=O)[C@H](Cc1ccccc1)NC(=O)[C@H](CC(=O)O)NC(=O)[C@H](CN)NC(=O)[C@H](Cc1ccccc1)NC(=O)[C@H](Cc1ccccc1)NC(=O)[C@H](CCCCN)NC(=O)[C@H](CCN)NC(=O)[C@H](CC(C)C)NC(=O)[C@H](CCCNC(=N)N)NC(=O)[C@H](CCSC)NC(=O)[C@H](C)N)C(=O)N[C@@H](CC(C)C)C(=O)N[C@@H](CCC(N)=O)C(=O)N[C@@H](CCCNC(=N)N)C(=O)N[C@@H](CCCCN)C(=O)N[C@@H](CCCCN)C(=O)O` the helicity was 18.3% (circular dichroism; 20% TFE in PBS; 200 µM, pH 7.4, 25 °C).
`CC(C)C[C@H](NC(=O)[C@H](CCCCN)NC(=O)[C@H](CCC(=O)O)NC(=O)[C@H](C)NC(=O)[C@@H](NC(=O)[C@H](CCCCN)NC(=O)[C@H](CC(=O)O)NC(=O)[C@H](Cc1ccc(O)cc1)NC(=O)[C@H](Cc1ccccc1)NC(=O)[C@H](C)NC(=O)[C@H](CCCCN)NC(=O)[C@H](CC(C)C)NC(=O)[C@H](Cc1c[nH]c2ccccc12)NC(=O)[C@@H](N)CC(=O)O)C(C)C)C(=O)N[C@@H](CCCCN)C(=O)N[C@@H](CCC(=O)O)C(=O)N[C@@H](C)C(=O)N[C@@H](Cc1ccccc1)C(=O)N1CCC[C@H]1C(=O)N[C@@H](CC(=O)O)C(=O)N[C@@H](Cc1c[nH]c2ccccc12)C(=O)N[C@@H](C)C(=O)N[C@@H](CCCCN)C(=O)N[C@@H](C)C(=O)N[C@@H](C)C(=O)N[C@@H](Cc1ccc(O)cc1)C(=O)N[C@@H](CC(=O)O)C(=O)N[C@@H](CCCCN)C(=O)N[C@@H](C)C(=O)N[C@@H](C)C(=O)N[C@@H](CCC(=O)O)C(=O)N[C@@H](CCCCN)C(=O)N[C@@H](C)C(=O)N[C@@H](CCCCN)C(=O)N[C@@H](CCC(=O)O)C(=O)N[C@@H](C)C(=O)N[C@@H](C)C(=O)O` gave a Tmax of 0 h (cynomolgus monkey female, plasma; intravenous infusion, 8 mg/kg, day 1, 30 min infusion).
`CC[C@H](C)C(=O)N1CCC(NC(=O)Nc2ccc(OC(F)(F)F)c(F)c2)CC1` — result for “subjects with laryngitis TEAE”: 0% (healthy volunteers; oral, 8 mg single dose).

Some of these lines once more:
`CC(C)C[C@H](NC(=O)[C@H](CCCCN)NC(=O)[C@H](CCC(=O)O)NC(=O)[C@H](C)NC(=O)[C@@H](NC(=O)[C@H](CCCCN)NC(=O)[C@H](CC(=O)O)NC(=O)[C@H](Cc1ccc(O)cc1)NC(=O)[C@H](Cc1ccccc1)NC(=O)[C@H](C)NC(=O)[C@H](CCCCN)NC(=O)[C@H](CC(C)C)NC(=O)[C@H](Cc1c[nH]c2ccccc12)NC(=O)[C@@H](N)CC(=O)O)C(C)C)C(=O)N[C@@H](CCCCN)C(=O)N[C@@H](CCC(=O)O)C(=O)N[C@@H](C)C(=O)N[C@@H](Cc1ccccc1)C(=O)N1CCC[C@H]1C(=O)N[C@@H](CC(=O)O)C(=O)N[C@@H](Cc1c[nH]c2ccccc12)C(=O)N[C@@H](C)C(=O)N[C@@H](CCCCN)C(=O)N[C@@H](C)C(=O)N[C@@H](C)C(=O)N[C@@H](Cc1ccc(O)cc1)C(=O)N[C@@H](CC(=O)O)C(=O)N[C@@H](CCCCN)C(=O)N[C@@H](C)C(=O)N[C@@H](C)C(=O)N[C@@H](CCC(=O)O)C(=O)N[C@@H](CCCCN)C(=O)N[C@@H](C)C(=O)N[C@@H](CCCCN)C(=O)N[C@@H](CCC(=O)O)C(=O)N[C@@H](C)C(=O)N[C@@H](C)C(=O)O` gave a Tmax of 0 h (cynomolgus monkey female, plasma; intravenous infusion, 8 mg/kg, day 1, 30 min infusion).
`c1ccc(C2(CCNC3CCC4(SCCS4)c4ccccc43)CCOC3(CCCC3)C2)nc1` (stereo not drawn) gave an AUC(0-24 h) of 137 ng·h/mL (rat; intravenous, 0.15 mg/kg).
With `CN[C@](C)(C[18F])C(=O)O` the tissue uptake was 2.7 ± 0.5 %ID/g (SCID mouse MDA-MB-468 xenograft, kidney; 120 min post injection).
